Results collected from several papers.
Lines come from different studies, so protocols differ. “And” joins repeats or separate records; there may be more than shown.
Chain of UniProt Q6DWJ6 (whole entry, looked up): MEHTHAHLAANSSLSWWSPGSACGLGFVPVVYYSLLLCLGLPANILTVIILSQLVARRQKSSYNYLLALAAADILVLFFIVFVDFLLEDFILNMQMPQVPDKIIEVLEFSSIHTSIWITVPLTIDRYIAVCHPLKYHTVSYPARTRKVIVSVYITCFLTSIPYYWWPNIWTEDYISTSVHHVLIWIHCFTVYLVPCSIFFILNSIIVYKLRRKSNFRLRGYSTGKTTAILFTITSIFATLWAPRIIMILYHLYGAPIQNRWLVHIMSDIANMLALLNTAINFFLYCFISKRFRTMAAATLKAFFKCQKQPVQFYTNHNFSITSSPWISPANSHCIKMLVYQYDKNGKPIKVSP
Chain of UniProt Q9Y2J8 (whole entry, looked up): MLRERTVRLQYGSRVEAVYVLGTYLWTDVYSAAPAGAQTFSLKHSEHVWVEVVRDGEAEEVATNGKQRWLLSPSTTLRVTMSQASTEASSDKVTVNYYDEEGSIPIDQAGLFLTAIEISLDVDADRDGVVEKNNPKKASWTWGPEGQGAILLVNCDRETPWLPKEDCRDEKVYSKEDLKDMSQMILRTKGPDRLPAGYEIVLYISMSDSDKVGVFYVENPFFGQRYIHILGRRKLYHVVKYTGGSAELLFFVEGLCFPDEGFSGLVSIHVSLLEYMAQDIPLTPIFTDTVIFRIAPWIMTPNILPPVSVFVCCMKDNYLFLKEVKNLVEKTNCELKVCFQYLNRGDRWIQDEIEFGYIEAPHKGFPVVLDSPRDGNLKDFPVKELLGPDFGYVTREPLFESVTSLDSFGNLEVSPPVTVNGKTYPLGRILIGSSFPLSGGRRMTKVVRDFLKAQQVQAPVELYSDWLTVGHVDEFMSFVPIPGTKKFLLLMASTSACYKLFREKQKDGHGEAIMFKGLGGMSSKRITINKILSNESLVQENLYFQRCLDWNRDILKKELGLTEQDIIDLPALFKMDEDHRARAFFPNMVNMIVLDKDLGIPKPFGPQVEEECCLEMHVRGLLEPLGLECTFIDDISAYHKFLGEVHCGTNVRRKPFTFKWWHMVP
Chain of UniProt P04150 (whole entry, looked up): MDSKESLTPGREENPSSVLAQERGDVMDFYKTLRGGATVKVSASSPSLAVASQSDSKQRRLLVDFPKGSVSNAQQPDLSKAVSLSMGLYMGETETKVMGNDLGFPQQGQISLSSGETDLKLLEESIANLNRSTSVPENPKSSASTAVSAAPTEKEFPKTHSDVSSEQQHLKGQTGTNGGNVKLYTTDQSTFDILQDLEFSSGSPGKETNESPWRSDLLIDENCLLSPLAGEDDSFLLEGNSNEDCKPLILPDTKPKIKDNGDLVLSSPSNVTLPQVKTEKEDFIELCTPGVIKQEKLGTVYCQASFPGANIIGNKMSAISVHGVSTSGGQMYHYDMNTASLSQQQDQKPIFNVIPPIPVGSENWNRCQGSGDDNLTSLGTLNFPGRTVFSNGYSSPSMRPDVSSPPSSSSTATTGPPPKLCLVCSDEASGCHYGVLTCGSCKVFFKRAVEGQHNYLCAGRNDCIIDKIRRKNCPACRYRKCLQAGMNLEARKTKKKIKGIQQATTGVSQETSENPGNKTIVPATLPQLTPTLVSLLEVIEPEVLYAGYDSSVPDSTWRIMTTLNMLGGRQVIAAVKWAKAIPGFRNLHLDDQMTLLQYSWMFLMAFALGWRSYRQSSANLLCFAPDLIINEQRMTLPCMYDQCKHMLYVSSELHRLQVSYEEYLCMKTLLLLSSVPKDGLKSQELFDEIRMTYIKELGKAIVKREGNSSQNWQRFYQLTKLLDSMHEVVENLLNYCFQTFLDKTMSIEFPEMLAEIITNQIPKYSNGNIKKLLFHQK
Chain of UniProt Q09013 (whole entry, looked up): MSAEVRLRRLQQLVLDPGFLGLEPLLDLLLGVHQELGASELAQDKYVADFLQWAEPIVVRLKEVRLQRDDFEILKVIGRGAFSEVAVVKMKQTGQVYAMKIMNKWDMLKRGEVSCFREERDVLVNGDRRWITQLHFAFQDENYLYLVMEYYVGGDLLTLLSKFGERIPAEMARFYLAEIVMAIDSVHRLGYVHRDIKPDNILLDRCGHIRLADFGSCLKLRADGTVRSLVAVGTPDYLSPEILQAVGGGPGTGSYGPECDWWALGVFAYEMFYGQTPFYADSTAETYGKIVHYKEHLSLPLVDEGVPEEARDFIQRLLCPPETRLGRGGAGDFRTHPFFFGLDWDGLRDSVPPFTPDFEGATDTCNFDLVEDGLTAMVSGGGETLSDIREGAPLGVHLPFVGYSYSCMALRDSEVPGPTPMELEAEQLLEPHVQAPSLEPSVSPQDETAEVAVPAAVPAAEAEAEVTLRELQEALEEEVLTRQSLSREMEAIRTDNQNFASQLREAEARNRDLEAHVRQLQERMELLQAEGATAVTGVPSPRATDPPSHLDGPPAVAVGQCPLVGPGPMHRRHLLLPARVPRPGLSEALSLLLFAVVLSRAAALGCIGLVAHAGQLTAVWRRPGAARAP
Chain of UniProt Q62868 (whole entry, looked up): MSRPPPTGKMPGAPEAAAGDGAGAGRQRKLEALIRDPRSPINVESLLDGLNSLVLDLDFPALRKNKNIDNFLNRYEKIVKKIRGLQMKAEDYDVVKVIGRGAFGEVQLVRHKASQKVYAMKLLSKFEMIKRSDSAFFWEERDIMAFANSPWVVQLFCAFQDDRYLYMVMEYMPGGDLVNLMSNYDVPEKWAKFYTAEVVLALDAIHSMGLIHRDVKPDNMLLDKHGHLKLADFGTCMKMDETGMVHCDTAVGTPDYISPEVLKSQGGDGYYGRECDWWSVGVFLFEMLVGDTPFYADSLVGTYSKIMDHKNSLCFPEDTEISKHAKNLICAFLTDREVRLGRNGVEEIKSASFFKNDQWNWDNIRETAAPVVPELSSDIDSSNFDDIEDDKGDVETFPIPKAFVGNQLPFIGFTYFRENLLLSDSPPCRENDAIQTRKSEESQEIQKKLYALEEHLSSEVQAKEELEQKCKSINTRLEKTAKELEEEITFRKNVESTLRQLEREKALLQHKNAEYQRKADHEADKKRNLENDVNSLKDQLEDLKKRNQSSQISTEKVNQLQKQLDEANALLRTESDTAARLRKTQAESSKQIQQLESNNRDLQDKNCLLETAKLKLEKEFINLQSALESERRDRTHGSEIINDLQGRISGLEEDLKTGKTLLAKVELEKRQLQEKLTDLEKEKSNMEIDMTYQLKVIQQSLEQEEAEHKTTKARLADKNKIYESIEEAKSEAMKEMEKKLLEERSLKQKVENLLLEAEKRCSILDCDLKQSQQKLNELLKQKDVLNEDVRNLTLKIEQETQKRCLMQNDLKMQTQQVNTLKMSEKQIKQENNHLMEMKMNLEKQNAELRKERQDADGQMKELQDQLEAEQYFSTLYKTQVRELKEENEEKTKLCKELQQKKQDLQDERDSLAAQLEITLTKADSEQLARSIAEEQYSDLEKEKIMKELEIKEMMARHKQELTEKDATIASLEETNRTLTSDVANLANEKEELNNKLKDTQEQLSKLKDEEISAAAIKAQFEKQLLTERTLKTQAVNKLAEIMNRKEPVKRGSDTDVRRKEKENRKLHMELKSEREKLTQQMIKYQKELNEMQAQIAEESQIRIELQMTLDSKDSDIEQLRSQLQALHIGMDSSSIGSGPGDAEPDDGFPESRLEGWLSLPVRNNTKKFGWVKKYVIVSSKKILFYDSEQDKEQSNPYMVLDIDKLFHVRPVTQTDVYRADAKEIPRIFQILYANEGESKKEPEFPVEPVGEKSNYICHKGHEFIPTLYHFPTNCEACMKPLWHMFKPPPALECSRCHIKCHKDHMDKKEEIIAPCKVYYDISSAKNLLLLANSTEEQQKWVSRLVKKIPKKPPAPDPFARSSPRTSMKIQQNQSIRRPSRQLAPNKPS
Chain of UniProt O42275 (whole entry, looked up): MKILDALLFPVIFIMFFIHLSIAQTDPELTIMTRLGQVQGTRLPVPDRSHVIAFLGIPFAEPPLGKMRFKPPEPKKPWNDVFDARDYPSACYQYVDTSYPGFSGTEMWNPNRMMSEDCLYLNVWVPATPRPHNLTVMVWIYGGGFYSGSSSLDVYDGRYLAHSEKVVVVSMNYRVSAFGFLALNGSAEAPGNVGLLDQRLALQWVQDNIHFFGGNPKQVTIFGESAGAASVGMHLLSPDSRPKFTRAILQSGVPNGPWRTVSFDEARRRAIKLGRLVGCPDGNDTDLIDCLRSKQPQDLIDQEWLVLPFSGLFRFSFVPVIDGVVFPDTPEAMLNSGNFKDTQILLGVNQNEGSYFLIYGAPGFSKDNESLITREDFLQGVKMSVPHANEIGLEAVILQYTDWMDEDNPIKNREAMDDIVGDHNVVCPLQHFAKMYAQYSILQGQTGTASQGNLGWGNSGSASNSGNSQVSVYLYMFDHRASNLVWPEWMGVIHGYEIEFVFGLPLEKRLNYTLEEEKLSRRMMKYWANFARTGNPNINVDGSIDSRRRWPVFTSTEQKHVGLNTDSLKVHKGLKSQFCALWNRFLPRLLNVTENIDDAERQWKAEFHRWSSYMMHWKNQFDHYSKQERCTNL
Chain of UniProt P28222 (whole entry, looked up): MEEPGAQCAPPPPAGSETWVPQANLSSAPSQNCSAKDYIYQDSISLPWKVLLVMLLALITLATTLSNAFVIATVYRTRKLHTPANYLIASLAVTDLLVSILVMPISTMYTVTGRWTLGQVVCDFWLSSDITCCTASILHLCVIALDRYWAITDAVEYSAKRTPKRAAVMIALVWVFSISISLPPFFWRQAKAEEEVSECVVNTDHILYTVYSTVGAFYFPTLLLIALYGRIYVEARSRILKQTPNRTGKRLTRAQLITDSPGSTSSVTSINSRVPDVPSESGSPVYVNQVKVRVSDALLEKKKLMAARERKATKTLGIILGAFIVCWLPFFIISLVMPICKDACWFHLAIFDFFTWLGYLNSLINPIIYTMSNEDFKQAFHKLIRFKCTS

`CC(C)[C@H]1NC(=O)C[C@H]2/C=C/CCSSC[C@@H](NC1=O)C(=O)N[C@H](Cc1cccc3ccccc13)C(=O)NCC(=O)O2` has an inhibition of -2% (MARK1 (Homo sapiens, UniProt Q9P0L2); enzyme activity, inhibitor; 10 µM).
For `CS(C)(=O)=Nc1ccc(-c2ccc(-c3nc4cc(O[C@@H]5CO[C@H]6[C@@H]5OC[C@H]6O)[nH]c4cc3F)cc2)cc1`, the inhibition was 0% (DMPK (Homo sapiens, UniProt Q09013); enzyme activity, inhibitor; 10 µM).
`O=C1NC(=O)c2c1c1cc(F)c[n+]3c1c1c2c2cc(O)ccc2[n]1[Ru-4]312([N]=C=S)[S+]3CC[S+]1CC[S+]2CC3` (stereo not drawn) gave a remaining activity of 80% (Rock2 (Rattus norvegicus, UniProt Q62868); enzyme activity; 100 nM, rat enzyme, added: 10 µM ATP; relative to: untreated).
`O=C(NC1CCN(c2ncnc3[nH]cnc23)CC1)c1cccc(NS(=O)(=O)c2ccc(C(F)(F)F)cc2)c1` has an inhibition of 96.6% (Replicase polyprotein 1ab, nsp14 (Human coronavirus OC43, UniProt P0C6X6); enzyme activity; 200 µM).
With `CCc1nnc(-c2c(OC)cc(-c3cnc4cc(-c5cnn(C)c5)ccn34)cc2OC)o1` the remaining binding was 113% (NR3C1 (Homo sapiens, UniProt P04150); agonist radioligand, radioligand binding; 10 µM, SafetyScreen44 GR replicate 2; lower = stronger displacement).
For `N[C@H](C(=O)N1CCCC1)C1CCN(c2nccc3c(-c4ncc(Cl)cc4Cl)cccc23)CC1`, the melting temperature was 69 °C and 68.7 °C (PADI2 (Homo sapiens, UniProt Q9Y2J8); thermal shift; 9.494 µM).
For `CN(C)[C@H]1C[C@@]23CC[C@@]4(O2)C(=CC[C@]2(C)[C@@H](c5ccc6ccncc6c5)CC[C@H]24)C=C3[C@@H](O)[C@@H]1O`, the inhibition was 9.8% (EPHB3 (Homo sapiens, UniProt P54753); ATP probe labelling, inhibitor, KiNativ profiling; 1 µM).
With `CC[C@H](C)[C@H](NC(=O)[C@H](CCCNC(=N)N)NC(=O)[C@H](CCCNC(=N)N)NC(=O)[C@H](CC(C)C)NC(=O)[C@H](Cc1ccccc1)NC(=O)CNC(=O)CNC(=O)[C@@H](N)Cc1ccc(O)cc1)C(=O)N[C@@H](CCCNC(=N)N)C(=O)N1CCC[C@H]1C(=O)N[C@@H](CCCCN)C(=O)N[C@@H](CC(C)C)C(=O)N[C@@H](CCCCN)C(=O)O` the Emax was 5.35% and 6.85% (GPR139 (Homo sapiens, UniProt Q6DWJ6); GαsS activation, agonist, BRET; HEK293T/17; 40 µM).
`O=C(Cc1ccc(Cl)c(Cl)c1)N1CCN[C@@H]2COC[C@H](N3CCCC3)[C@H]21` has an Emax of 53% (OPRK1 (Homo sapiens, UniProt P41145); β-arrestin-2 recruitment, agonist; U2OS; 1.5 h; relative to: U-69593 maximal response).
`O=C(O)C(/C=C/c1ccc(Cl)cc1)=N\Nc1nc(-c2ccc([N+](=O)[O-])cc2)cs1` gave a selectivity index of 1.83 (ache (Electrophorus electricus, UniProt O42275); Ellman; relative to: IC50 BChE over IC50 AChE).
`Cc1cc(Nc2nc(C[C@@]3(C(=O)O)CCN(Cc4cccc(Cl)c4F)[C@H](C)C3)cc(C)c2F)[nH]n1` has an activation of 2.85% (HTR1B (Homo sapiens, UniProt P28222); agonist; 10 µM).
The selectivity ratio of `CCCCCCCCCCN(O)C(=O)CCCCC[C@@H]1NC(=O)[C@H]2CCCN2C(=O)[C@H](Cc2ccccc2)NC(=O)[C@H](Cc2ccccc2)NC1=O` is reported as 0.6 (HDAC11 (Homo sapiens, UniProt Q96DB2); inhibitor; relative to: Ki HDAC1 over Ki HDAC11).

A few entries again:
`O=C1NC(=O)c2c1c1cc(F)c[n+]3c1c1c2c2cc(O)ccc2[n]1[Ru-4]312([N]=C=S)[S+]3CC[S+]1CC[S+]2CC3` (stereo not drawn) gave a remaining activity of 80% (Rock2 (Rattus norvegicus, UniProt Q62868); enzyme activity; 100 nM, rat enzyme, added: 10 µM ATP; relative to: untreated).
